Results collected from several papers.
Every numbered part comes from another study and shows a few of its results, in no order. Changes are numbered by the printed parent chain.

Series 1
Target: Sal-like protein 4, full length isoform B (SALL4, Homo sapiens, UniProt Q9UJQ4-2, residues 1-616)
Method: universal PBM
Molecule type: double-stranded DNA, one strand shown
Sample: in vitro
Concentration: not given
Notes: 8-mer, flanks averaged, mean of replicates
Direction: higher = stronger binding
Endpoint: E-score
GTGCACCA: -0.0247
TCTTGAAA: 0.266
AGGTTTCA: -0.0243
AGGACACG: -0.111
CGAACTCA: -0.191
CCCGGAAA: -0.263
AGGCTTAA: 0.105
ACGCGGAC: -0.0868
ACCATCGA: 0.0255
ATTAATCA: 0.331
AGTGCTGG: -0.146
GCGTCTTA: 0.0281
ATGATGGC: -0.103
GCTTGATA: 0.133
GCCTGCAA: -0.0949
ATCACTCA: 0.159
AGGGTGAT: -0.0178
ATTGGGGC: -0.0842
AAATCTTC: 0.109
AGAGGTTC: -0.0201
GCCCAGAA: -0.172
AGTCGCCC: -0.165
AACCATCA: 0.188
GGTCCGAA: -0.0919
CCGGTCTC: -0.322

Series 2
Target: RING finger protein unkempt homolog, zinc fingers 1-6, GST-SBP tag (UNK, Homo sapiens, UniProt Q9C0B0, residues 30-357)
Method: RNA Bind-n-Seq
Molecule type: RNA
Sample: in vitro
Concentration: not given
Notes: RNA with constant flanks, human-mouse chimeric sites, ends assumed
Reference: input RNA pool
Direction: higher = stronger binding
Endpoint: bound/input enrichment
Constant ends, left off below: GGGAGUUCUACAGUCCGACGAUC … CAACAGAGGAUUGAGCAUCA
Residues (chain): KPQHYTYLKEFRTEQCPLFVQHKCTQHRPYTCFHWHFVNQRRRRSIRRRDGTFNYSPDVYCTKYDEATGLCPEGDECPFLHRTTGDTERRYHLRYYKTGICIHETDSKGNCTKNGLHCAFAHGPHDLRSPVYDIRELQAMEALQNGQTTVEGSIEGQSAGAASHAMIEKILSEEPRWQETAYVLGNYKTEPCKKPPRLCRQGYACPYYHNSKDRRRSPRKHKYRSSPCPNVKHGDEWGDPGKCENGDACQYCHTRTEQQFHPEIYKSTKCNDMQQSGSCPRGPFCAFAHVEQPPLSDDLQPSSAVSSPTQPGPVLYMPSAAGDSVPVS
GUAGCUGGCCAUUAGGAAAUGCUGGUAAUUUCAGUCACUUGCUGAUGACUUCUGAUGUCCCAGCAAAUGUUGGCAUUCACUGCAAUAGAGAAGAUACUUCUGAGGACCCACGUCUAAGGU: 4.67 ratio
ACUCAGAGAUCCACCUCCCAAAGUGCUGGGAGUAAAGGUGUGGCCACCACACCUAACUUCAUAGACAUAUAUUUUUUUUAAUAUGAAUGAACUCUUGCGUCCAGGGAAGAAAGAUUUGUU: 1.97 ratio
CACACACUCUUCUGCGGGACCCUCAUCUUGCAGGCCCGGGCCUAUGUGGGACCGCACGUGCUAGCAGUGGUGACUCGCACAGGGUUCUGCACGGCAAAAGGGGGCCUGGUGAGCUCCAUC: 0.0771 ratio
CAGCCUCAGAGCCCAGACUUCCUGGAUAUCACCAACCCUAAAGCGGUAUUAGAAAAUGCAUUGAGAAACUUCGCCUGUCUGACCACCGGAGAUGUGAUUGCUAUCAACUACAAUGAGAAG: 0.474 ratio
UUCUAGUAUGAUGGUGAUAUUGGCAAUUAUUAUUAUGGCCAGGGUCAUCCCAUGAAGCCUCAUAGAAUCCGGAUGACUCAUAACUUGCUGUUAAAUUAUGGUUUAUACCGAAAAAUGGAA: 0.218 ratio
GAUGAUAAUCACACAAACAAGUCACUGUUAUGUGACCAGAGUUGUACUUCUUUUCCUGAUUAAUAUUCUCCCUGGAACCACUGGUCAAGGGGAAUCAAGACGACAAGAACCCGGGGACUU: 0.199 ratio
AGAAAGCAAAACUUGGAACGAUUUAAGAAAGGAGACGUAAGAUUCUUGAUUUGCACAGAUGUAGCUGCUAGAGGAAUUGAUAUCCAUGGUGUUCCUUAUGUGAUCAACGUCACCCUGCCU: 0.319 ratio
GCGGCAGAAUCAUGGAGGACAUAAUGCAGCUCCCCAAAGCGCGCGUCAACGCCGGCAUGCUAGCUCAGUAUAUCGACCGGCCCGUGUGCUUCGUGGGGAAGCUGGAAAAGAUUCAUCCCA: 0.0659 ratio
AUUGUUGAAGCGAAUCCACUUUUAGAAGCAUUUGGAAAUGCAAAGACUGUUCGCAACAAUAAUAGCAGUCGAUUUGGGAAAUUUGUAGAAAUUCAUUUCAAUGAAAAGAGCUCAGUUGUU: 0.309 ratio
UACUCAACUUUCUUGCCACAUUUUGAAUUCCAAGACAUUAUUCCUCCAGAUGACUUCCUAACGAGUGAUGAAGAGCAAGAUUUGGUUUUAUUUGGAAGUUUGAGAGGUCAUGUGGUUGGA: 0.197 ratio
UUAAUCCCCUUUACUGCUCCCCCACUUGUCAUGCUGAUAACAAAGUCUUAUAUCCCCGUCCUAGCUUUCACUCAGAUGGCUUAUGGAGCCAGUUUCCUAGCUUUCUUGGGAGGGAUCAGA: 0.245 ratio

Series 3
Target: CCND2, cyclin fold, Cln2 fusion (human)
Method: yeast growth competition, sequencing
Sample: yeast
Notes: weak parent motif
Reference: not given
Direction: higher = stronger binding
Endpoint: normalised enrichment score
Starting sequence: PKMYT1 docking peptide (human); SFEPRNLLSLFED
SFEPRNALSLFED [L7A]: 0.162
SFEPRSLLSLFED [N6S]: -0.036
SFEPRNLSSLFED [L8S]: -0.117
SFEPRPLLSLFED [N6P]: 0.189
QFEPRNLLSLFED [S1Q]: 0.063
SFEPRNTLSLFED [L7T]: -0.0298
SFEPRNLLGLFED [S9G]: 0.435
SFEPTNLLSLFED [R5T]: 0.173
SFEPRNLLSLFRD [E12R]: 0.0806
SFEPRNLLVLFED [S9V]: 0.436
SFEVRNLLSLFED [P4V]: -0.00824
SFEPRNLLSLRED [F11R]: -0.0997
SFEPANLLSLFED [R5A]: 0.248
SFEPRNELSLFED [L7E]: -0.136
SFEPRNLLSLFEN [D13N]: 0.134
SFPPRNLLSLFED [E3P]: 0.453
SFEPRNLLSLFEV [D13V]: 0.0377
SFEPRNLLYLFED [S9Y]: 0.125
SFEPRNLLHLFED [S9H]: 0.059
WFEPRNLLSLFED [S1W]: 0.0444
SFERRNLLSLFED [P4R]: 0.327
SYEPRNLLSLFED [F2Y]: 0.232
SFEPRNLLSLFEC [D13C]: -0.0965
SFEPRNLLSNFED [L10N]: 0.393
SFEPRNLLSLPED [F11P]: 0.0675

Series 4
Target: CREBRF, bZIP domain (human)
Method: DHFR protein complementation
Sample: yeast
Notes: single substitutions, most at no-binding floor
Reference: wild-type JUN-FOS pair
Direction: higher = stronger binding
Endpoint: binding fitness
Starting sequence: JUN, bZIP domain (human); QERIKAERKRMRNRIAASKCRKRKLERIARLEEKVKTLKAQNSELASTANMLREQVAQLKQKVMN; partner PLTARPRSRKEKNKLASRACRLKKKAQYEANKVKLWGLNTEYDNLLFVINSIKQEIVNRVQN
E54W: -1.53 natural log
S47A: -1.25 natural log
E32A: -1.49 natural log
T37P: -1.51 natural log
T48H: -1.47 natural log
I28R: -1.37 natural log
A49G: -1.48 natural log
E32G: -1.35 natural log
L38Q: -1.58 natural log
E32V: -1.46 natural log
S47W: -1.49 natural log
V35I: -0.872 natural log
E54P: -1.5 natural log
R30S: -1.36 natural log
A29V: -1.52 natural log
A40G: -1.5 natural log
L38W: -1.49 natural log
L31G: -1.48 natural log
T37S: -1.52 natural log
A29L: -1.48 natural log
A57R: -1.49 natural log
E44H: -1.18 natural log
A57C: -1.36 natural log
L31N: -1.51 natural log
S43Q: -1.37 natural log

Series 5
Target: RNA binding protein fox-1 homolog 2, RRM domain, GST-SBP tag (RBFOX2, Homo sapiens, UniProt O43251-10, residues 100-194)
Method: RNA Bind-n-Seq
Molecule type: RNA
Sample: in vitro
Concentration: 365 nM
Notes: natural RNA segment, single round, ends assumed
Reference: no-protein control
Direction: higher = stronger binding
Endpoint: RBNS enrichment (R)
Constant ends, left off below: GGGAGUUCUACAGUCCGACGAUC … UGGAAUUCUCGGGUGCCAA
Residues (chain): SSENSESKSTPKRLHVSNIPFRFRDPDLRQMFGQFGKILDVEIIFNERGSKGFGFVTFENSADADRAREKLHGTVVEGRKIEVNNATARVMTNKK
UUUAUAUUAGUGUAAAUAGAAAAUCUAUAGACAACUUUCUAGUUUUCUCUGGAGGCAUUUUUGGGAAUGUACGUGUAAUAGGCUCUGCUUUGUAUACAGGAGAUAAUACC: 0.598
CUUACAGAUUUUUCCUUCCCCAGCUUGUGUCCACCCCUGUGCCAGGAGAGGUAGCACCAUCUCCUGGGACCAUCAAAGAGUGGGCUGGAGUGGGGACAGUGGACAGAGCA: 0.292
GUAGGAGUGGACCCUGCCACUGGCCCCAUCGGAGCCGGAAAGCCAAGGAGGAAGGGACAGAGCUAGAAUCAGUGCCACUUUGCAGCAGCAAGGAUCCAGACGAAGUGGAA: 0.523
AGGGCCAGAGUCACAGUAUGGCACCGAGGCAGAAGGGAAGAGCUGAGACUGGCCCUGCCCUGCUUCUCAGUCUGUUCCACAUCCUAAGGUCACACCCUGUCAGGACUUCU: 0.341
CCCUCUGUACUAAUGACAUUUACAAUUCUAAAAUUUUAUGAAAUUGAAAUGAAAACUAAGAGUUGUAAAACAAAGUAUUUUCUUGGGAAUAUUACUUUAACAUUCAGAUG: 0.573
GAGGGUGAUGGGUAAAGCAGUAGAGGGCCCUCAACCCACACACUGGCUGAAACUGCCACCAACUGCCACGAUGAACCCAACUGCUGUUUAUGCCCCCAUUUUCCUUUUUU: 0.713
CAUCUAGUUAUCAUAAGAAAUAAUUUAAAAGGUUUUGUUGCUGAAAGCAGUAAGUGGUGCAGUAAAAUACUUAAGUUAUUCAAAGAAUGUUAUCUUUCUUGCAAGAGUAA: 0.487
CCUUUUUUCUCUCCUGCUCCAGGCCUCAGCUCCAGUCCGCUUCGGUUAUUGACCUCCUGGGUCCUACUCCACCCUAUCACCUACCCCCGUGACCCCCGGGAUCCCGCCGG: 1.07
CUCUCCGAGAAAGGGGAGCCAGAGCCGCUCACUGUGGUUCUGUUCCGACCUUGAAGGGGCGGUAUUGGCCUGGCUUCUGGAAUGGACAGAGUCCACCAGGAAAGACUGGG: 0.266
AGCAGCUACAGAAAGGGUGUGAGGCCCCAAAACCGUGUGCUGAGGGGCGAAUGCGUCGCCACCCCUGACCCCGCAUCUGGAGGGCGGGGCUUUGCUUGAGAAGACCCCAG: 1.16
GGGAAGGGAAGGAACCUGCAGCAGGGUUUCGAAGACAGCCAGGCCCUCCGUGAUUGAGGGCUCAUAUAGCCGCUGAGGGCAGCCUGCAGCCAGGUGGCCUCACCUGCUGC: 0.315
CACCAAGGCAGUAGCUAUGAUUCUAGAAGCUAAGAGGUGUCUAUAGAGCUAGACGGGCUUCUGCAUGUGAAAUGCUGUAUUCCAUAGGAGUUAAAAGUGCUGACUGAGCA: 10.1

Further values, each from its own experiment
PhoQ, residues 284 288 289 292 302 303 QWGLFV  fold induction (PhoP, residues 12 14 15 18 19 LHSVW (Escherichia coli, UniProt P23836); Sort-seq, measured: YFP reporter; E. coli; PhoQ-PhoP variant library, added: 10 µM Mg2+; reference: high Mg2+ state, higher = stronger signaling): 7.35

Excerpt of the above (series 3):
QFEPRNLLSLFED [S1Q]: 0.063
SFEPRNTLSLFED [L7T]: -0.0298
SFEPRNLLGLFED [S9G]: 0.435
SFEPTNLLSLFED [R5T]: 0.173
SFEPRNLLSLFRD [E12R]: 0.0806
SFEPRNLLVLFED [S9V]: 0.436
SFEVRNLLSLFED [P4V]: -0.00824
SFEPRNLLSLRED [F11R]: -0.0997
SFEPANLLSLFED [R5A]: 0.248
SFEPRNELSLFED [L7E]: -0.136
SFEPRNLLSLFEN [D13N]: 0.134
SFPPRNLLSLFED [E3P]: 0.453
SFEPRNLLSLFEV [D13V]: 0.0377
SFEPRNLLYLFED [S9Y]: 0.125
